Results from different studies.

Compound | tested on | assay | test system | setting | how to read | endpoint | value
COc1ccc(C[C@@H]2NC(=O)[C@H]([C@@H](C)O)NC(=O)[C@@H]3[C@@H]4CCN3C(=O)[C@@H]3Cc5cn(c6ccc(F)cc56)CCCCCCN(Cc5ccc(cc5)CCNC(=O)[C@]5(C)CCCN5C2=O)C(=O)CCC(=O)N[C@@H](C)C(=O)N[C@H](CNC(=O)CCCCC[N+](C)(C)C)C(=O)N[C@@H](Cc2cccc(c2)CNC(=O)CO4)C(=O)N3)cc1 |  |  | human, plasma | oral, 40 mg, high-fat breakfast 30 min before, with: sodium caprate 720 mg |  | AUC(0-t) | 0.209 µM·h
COC[C@@H](NC(C)=O)C(=O)NCc1ccccc1 |  | fluorescence quenching | human healthy male, plasma | oral, 100 mg single, up to 48 h |  | AUC(0-t) | 45700 ng·h/mL
Cc1ccc(-c2cccc(CN3CCCC(c4nc5ccc(C)cc5c(=O)[nH]4)C3)c2)c(C)c1 (stereo not shown) | Vero-E6 | CellTiter-Glo ATP |  | concentration not given, 72 h, second round 5-point | reference: DMSO 0%, hyamine -100%, more negative, more toxic | cytotoxicity efficacy | 0%
O=c1ccc2ncc(=O)n3c2n1C[C@H]3CN1CCC(NCc2cc3c(cn2)OCCC3)CC1 |  |  | healthy human volunteers, plasma | oral, 1500 mg, arithmetic mean, alone |  | AUC(0-t) | 18000 ng·h/mL
C[C@H](NC(=O)c1c(C(F)F)nn(C)c1Oc1cccc(C(F)(F)F)c1)c1ccc(C(=O)O)cc1 |  |  | human, plasma | 500 mg, cycle 1 day 8, mean |  | AUC(0-t) | 6060 ng·h/mL
CC[C@H](C)C(=O)O[C@H]1C[C@H](O)C=C2C=C[C@H](C)[C@H](CC[C@@H](O)C[C@@H](O)CC(=O)O)[C@H]21 |  |  | OATP1B1/1B3 humanized mouse | oral, dose not given |  | AUC(0-t) | 1.35 µM·h
Clc1ccccc1C1(c2ccnc(-c3ccccc3)n2)CCNCC1 | Vero-E6 | CellTiter-Glo ATP |  | concentration not given, 72 h, first round 5-point | reference: DMSO 0%, hyamine -100%, more negative, more toxic | cytotoxicity efficacy | 0%
CC(=O)c1c(C)c2cnc(Nc3ccc(C4CCN(CCS(C)(=O)=O)CC4)cn3)nc2n(C2CCCC2)c1=O |  |  | human, dose-escalation trial, plasma | oral, 50 mg twice daily, day 1, single dose |  | AUC(0-t) | 584 ng·h/mL
OCc1ncc2n1-c1ccc(Cl)cc1C(c1ccccc1F)=NC2 |  |  | human, plasma | oral, 2.5 mg, day 1 |  | AUC(0-t) | 9.6 ng·h/mL
OCc1ncc2n1-c1ccc(Cl)cc1C(c1ccccc1F)=NC2 |  |  | human, plasma | oral, 7.5 mg of midazolam, day 19, arithmetic mean, no amenamevir |  | AUC(0-t) | 44.1 ng·h/mL
